{"data": "Assay results pooled from the literature", "note": "Numbered parts are unrelated; each lists some results of a single study.", "chain of UniProt Q86UE8 (whole entry, looked up)": "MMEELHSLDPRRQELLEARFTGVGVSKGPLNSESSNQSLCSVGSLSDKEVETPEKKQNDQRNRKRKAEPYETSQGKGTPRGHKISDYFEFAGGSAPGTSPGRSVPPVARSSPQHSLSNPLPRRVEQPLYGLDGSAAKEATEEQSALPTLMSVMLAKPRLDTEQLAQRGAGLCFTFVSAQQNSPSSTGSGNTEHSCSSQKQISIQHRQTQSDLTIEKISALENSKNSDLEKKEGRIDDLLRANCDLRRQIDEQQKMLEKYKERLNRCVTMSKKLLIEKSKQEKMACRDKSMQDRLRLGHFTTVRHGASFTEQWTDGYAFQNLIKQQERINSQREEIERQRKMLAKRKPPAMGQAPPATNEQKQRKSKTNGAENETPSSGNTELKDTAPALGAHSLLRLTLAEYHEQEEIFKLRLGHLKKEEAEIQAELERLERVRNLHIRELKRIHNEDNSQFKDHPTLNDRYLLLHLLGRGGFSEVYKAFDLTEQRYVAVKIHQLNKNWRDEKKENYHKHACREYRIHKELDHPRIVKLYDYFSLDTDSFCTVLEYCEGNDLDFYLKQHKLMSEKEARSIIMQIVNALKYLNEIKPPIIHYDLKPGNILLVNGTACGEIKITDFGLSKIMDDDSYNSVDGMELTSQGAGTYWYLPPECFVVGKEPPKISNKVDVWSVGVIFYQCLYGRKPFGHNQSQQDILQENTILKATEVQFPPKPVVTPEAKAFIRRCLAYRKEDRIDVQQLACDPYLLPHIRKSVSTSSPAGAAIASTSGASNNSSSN", "chain of UniProt P11362 (whole entry, looked up)": "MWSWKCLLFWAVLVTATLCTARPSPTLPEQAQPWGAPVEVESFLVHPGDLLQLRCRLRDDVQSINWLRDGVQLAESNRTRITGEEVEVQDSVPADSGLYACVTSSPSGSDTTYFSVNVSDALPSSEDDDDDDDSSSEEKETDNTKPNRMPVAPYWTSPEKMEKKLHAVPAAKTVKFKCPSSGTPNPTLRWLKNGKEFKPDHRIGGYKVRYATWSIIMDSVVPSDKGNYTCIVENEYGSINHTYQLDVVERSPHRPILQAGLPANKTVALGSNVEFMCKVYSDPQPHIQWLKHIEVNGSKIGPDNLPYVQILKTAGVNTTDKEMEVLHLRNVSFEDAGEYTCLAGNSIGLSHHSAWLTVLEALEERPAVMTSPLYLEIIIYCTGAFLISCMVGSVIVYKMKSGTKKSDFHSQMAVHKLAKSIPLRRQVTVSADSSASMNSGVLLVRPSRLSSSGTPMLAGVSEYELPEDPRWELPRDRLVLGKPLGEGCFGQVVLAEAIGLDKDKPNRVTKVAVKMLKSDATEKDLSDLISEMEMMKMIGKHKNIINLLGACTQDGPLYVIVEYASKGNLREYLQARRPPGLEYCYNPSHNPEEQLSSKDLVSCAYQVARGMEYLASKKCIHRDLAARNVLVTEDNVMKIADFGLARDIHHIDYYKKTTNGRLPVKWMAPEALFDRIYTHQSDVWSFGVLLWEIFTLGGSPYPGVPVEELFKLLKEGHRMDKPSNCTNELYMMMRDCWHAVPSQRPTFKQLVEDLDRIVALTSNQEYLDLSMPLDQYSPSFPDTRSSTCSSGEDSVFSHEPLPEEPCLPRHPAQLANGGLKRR", "chain of UniProt O14757 (whole entry, looked up)": "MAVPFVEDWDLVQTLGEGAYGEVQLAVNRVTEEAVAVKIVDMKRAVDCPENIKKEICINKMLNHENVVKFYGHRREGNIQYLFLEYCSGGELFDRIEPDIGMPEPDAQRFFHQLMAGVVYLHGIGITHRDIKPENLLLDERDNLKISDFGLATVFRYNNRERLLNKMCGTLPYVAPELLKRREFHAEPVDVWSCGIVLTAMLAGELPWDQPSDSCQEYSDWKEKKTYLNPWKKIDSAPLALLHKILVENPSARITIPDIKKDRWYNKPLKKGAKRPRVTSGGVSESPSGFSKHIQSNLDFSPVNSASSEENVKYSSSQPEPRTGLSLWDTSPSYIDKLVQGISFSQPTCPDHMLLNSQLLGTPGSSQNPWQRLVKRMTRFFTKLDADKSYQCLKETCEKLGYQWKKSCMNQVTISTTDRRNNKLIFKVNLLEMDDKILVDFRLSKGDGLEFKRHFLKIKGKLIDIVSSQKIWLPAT", "chain of UniProt Q15569 (whole entry, looked up)": "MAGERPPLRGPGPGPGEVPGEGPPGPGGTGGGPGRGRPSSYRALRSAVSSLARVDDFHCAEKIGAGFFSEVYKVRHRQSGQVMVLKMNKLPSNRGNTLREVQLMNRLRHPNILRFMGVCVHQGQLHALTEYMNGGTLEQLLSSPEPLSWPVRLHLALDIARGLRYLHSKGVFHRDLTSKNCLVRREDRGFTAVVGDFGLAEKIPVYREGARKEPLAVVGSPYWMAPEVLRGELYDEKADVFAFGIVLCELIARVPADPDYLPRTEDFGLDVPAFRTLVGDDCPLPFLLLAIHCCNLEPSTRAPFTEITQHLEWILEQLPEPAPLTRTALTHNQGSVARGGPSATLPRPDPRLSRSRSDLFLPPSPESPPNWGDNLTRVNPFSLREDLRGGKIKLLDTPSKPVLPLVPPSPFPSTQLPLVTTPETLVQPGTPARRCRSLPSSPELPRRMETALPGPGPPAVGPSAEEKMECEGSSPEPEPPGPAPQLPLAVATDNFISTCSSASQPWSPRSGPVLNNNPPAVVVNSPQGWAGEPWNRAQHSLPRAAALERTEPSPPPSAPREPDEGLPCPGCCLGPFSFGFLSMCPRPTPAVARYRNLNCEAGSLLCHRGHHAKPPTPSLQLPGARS", "chain of UniProt Q06187 (whole entry, looked up)": "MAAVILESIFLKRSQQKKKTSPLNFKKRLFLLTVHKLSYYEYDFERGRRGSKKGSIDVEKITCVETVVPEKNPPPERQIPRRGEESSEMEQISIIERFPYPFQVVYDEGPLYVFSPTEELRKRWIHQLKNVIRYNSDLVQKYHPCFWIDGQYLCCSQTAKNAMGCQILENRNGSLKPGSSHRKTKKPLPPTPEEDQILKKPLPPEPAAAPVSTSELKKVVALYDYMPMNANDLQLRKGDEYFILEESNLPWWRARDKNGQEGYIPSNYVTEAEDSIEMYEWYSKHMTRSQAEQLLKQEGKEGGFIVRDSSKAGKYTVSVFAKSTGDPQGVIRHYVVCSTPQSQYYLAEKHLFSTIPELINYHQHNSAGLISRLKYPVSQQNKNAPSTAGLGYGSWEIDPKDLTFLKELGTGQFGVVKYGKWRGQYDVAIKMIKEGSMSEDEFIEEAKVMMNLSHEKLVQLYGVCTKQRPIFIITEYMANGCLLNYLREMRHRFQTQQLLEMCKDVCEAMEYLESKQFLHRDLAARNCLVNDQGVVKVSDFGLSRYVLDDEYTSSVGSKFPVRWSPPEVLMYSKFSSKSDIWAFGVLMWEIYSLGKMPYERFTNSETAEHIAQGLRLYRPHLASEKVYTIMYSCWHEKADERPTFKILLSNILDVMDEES", "chain of UniProt Q9NYY3 (whole entry, looked up)": "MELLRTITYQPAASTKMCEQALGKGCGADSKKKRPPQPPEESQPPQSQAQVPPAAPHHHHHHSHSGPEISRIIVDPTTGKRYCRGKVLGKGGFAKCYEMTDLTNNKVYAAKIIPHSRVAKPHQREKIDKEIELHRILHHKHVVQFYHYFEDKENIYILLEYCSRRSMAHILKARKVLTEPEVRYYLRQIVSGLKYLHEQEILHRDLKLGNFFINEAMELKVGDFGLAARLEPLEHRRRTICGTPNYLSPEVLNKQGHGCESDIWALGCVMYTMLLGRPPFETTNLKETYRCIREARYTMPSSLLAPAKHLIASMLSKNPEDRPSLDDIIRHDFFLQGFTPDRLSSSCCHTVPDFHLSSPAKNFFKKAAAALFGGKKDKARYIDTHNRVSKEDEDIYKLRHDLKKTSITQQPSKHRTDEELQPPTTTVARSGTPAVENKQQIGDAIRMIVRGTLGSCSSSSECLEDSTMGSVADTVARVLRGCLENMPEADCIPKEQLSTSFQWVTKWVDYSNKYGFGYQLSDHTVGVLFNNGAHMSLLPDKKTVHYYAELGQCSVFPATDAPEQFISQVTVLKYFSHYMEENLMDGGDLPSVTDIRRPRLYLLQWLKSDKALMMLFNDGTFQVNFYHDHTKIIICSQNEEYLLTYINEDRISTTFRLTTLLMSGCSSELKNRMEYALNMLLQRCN", "chain of UniProt Q13976 (whole entry, looked up)": "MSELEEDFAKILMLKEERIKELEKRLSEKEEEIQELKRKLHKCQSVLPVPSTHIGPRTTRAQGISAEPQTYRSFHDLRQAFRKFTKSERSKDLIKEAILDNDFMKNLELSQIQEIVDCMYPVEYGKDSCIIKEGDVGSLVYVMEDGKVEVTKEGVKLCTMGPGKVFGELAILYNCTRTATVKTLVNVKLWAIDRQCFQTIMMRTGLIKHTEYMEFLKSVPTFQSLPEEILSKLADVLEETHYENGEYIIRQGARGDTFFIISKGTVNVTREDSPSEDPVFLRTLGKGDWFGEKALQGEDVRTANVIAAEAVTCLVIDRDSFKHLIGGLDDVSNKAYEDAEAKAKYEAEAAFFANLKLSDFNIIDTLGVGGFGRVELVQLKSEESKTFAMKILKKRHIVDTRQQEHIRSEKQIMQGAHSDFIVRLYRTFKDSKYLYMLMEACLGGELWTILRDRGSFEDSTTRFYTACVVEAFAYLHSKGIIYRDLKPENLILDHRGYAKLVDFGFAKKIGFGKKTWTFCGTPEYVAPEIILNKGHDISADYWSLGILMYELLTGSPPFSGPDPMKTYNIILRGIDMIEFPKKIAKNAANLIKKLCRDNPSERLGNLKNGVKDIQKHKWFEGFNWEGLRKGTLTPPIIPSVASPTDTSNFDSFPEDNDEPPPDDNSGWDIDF", "chain of UniProt P48729 (whole entry, looked up)": "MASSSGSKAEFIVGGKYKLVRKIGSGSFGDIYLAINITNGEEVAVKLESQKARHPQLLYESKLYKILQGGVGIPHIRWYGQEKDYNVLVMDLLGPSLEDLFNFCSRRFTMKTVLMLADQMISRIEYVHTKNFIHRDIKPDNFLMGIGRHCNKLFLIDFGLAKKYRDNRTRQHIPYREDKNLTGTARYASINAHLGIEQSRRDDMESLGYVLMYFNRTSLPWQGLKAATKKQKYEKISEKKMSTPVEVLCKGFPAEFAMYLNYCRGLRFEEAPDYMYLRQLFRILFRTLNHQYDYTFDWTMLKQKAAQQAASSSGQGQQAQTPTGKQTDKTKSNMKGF"}
{"data": "Block 1", "SMILES": "CC(C)CC(=O)N1CCc2nc(-c3ccc(Br)cc3)nc(N(C)Cc3ccccc3)c2C1", "read-out": "cell-free assay", "technique": "competition with immobilised ligand", "tested at": "0.1 µM"}
{"target": "Receptor-type tyrosine-protein kinase FLT3, autoinhibited (FLT3, Homo sapiens, UniProt P36888)", "remaining binding": "100%"}
{"target": "Serine/threonine-protein kinase 32C (STK32C, Homo sapiens, UniProt Q86UX6)", "remaining binding": "98%"}
{"target": "Receptor-type tyrosine-protein kinase FLT3 (FLT3, Homo sapiens, UniProt P36888, D835V/ITD)", "remaining binding": "92%"}
{"target": "Fibroblast growth factor receptor 1 (FGFR1, Homo sapiens, UniProt P11362)", "remaining binding": "100%"}
{"target": "Ribosomal protein S6 kinase alpha-3, C-terminal kinase domain (RPS6KA3, Homo sapiens, UniProt P51812)", "remaining binding": "67%"}
{"target": "Mitogen-activated protein kinase 11 (MAPK11, Homo sapiens, UniProt Q15759)", "remaining binding": "100%"}
{"target": "Ribosomal protein S6 kinase alpha-1, C-terminal kinase domain (RPS6KA1, Homo sapiens, UniProt Q15418)", "remaining binding": "100%"}
{"target": "Casein kinase I isoform alpha (CSNK1A1, Homo sapiens, UniProt P48729)", "remaining binding": "73%"}
{"target": "Glycogen synthase kinase-3 alpha (GSK3A, Homo sapiens, UniProt P49840)", "remaining binding": "100%"}
{"target": "Serine/threonine-protein kinase tousled-like 2 (TLK2, Homo sapiens, UniProt Q86UE8)", "remaining binding": "100%"}
{"target": "Hepatocyte growth factor receptor (MET, Homo sapiens, UniProt P08581, M1250T)", "remaining binding": "70%"}
{"target": "Receptor-interacting serine/threonine-protein kinase 1 (RIPK1, Homo sapiens, UniProt Q13546)", "remaining binding": "100%"}
{"target": "Epidermal growth factor receptor (EGFR, Homo sapiens, UniProt P00533, A750P/del747-749)", "remaining binding": "100%"}
{"target": "G protein-coupled receptor kinase 4 (GRK4, Homo sapiens, UniProt P32298)", "remaining binding": "75%"}
{"target": "Calcium/calmodulin-dependent protein kinase type II subunit gamma (CAMK2G, Homo sapiens, UniProt Q13555)", "remaining binding": "100%"}
{"target": "Dual specificity testis-specific protein kinase 1 (TESK1, Homo sapiens, UniProt Q15569)", "remaining binding": "100%"}
{"target": "Epidermal growth factor receptor (EGFR, Homo sapiens, UniProt P00533, G719C)", "remaining binding": "100%"}
{"target": "Phosphatidylinositol 4,5-bisphosphate 3-kinase catalytic subunit alpha isoform (PIK3CA, Homo sapiens, UniProt P42336, C420R)", "remaining binding": "87%"}
{"target": "Platelet-derived growth factor receptor alpha (PDGFRA, Homo sapiens, UniProt P16234)", "remaining binding": "98%"}
{"data": "Block 2", "SMILES": "CC(C)n1cnc(-c2ccc(F)cc2)c1-c1ncc(C(=O)Nc2ccc(N3CCN(C)CC3)cc2)[nH]1", "technique": "phase 2a trial", "species": "idiopathic pulmonary fibrosis patients"}
{"test": "refers to: gingivitis", "conditions": "30 mg once daily, grade 5", "adverse event incidence [%]": 0}
{"test": "refers to: chronic gastritis", "conditions": "30 mg once daily, grade 2", "adverse event incidence [%]": 0}
{"test": "refers to: hepatic enzyme abnormal", "conditions": "30 mg once daily, grade 4", "adverse event incidence [%]": 0}
{"test": "refers to: allergic conjunctivitis", "conditions": "60 mg once daily, grade 1", "adverse event incidence [%]": 0}
{"test": "refers to: hydroxybutyrate dehydrogenase increased", "conditions": "60 mg once daily, grade 4", "adverse event incidence [%]": 0}
{"test": "refers to: liver injury", "conditions": "dose not given, grade 4, all arms pooled", "adverse event incidence [%]": 0}
{"test": "refers to: appendicitis", "conditions": "30 mg once daily, grade 4", "adverse event incidence [%]": 0}
{"test": "refers to: chronic gastritis", "conditions": "dose not given, grade 3, all arms pooled", "adverse event incidence [%]": 0}
{"test": "refers to: ventricular extrasystoles", "conditions": "dose not given, grade 4, all arms pooled", "adverse event incidence [%]": 0}
{"test": "refers to: liver injury", "conditions": "30 mg once daily, grade 3", "adverse event incidence [%]": 0}
{"test": "refers to: hydroxybutyrate dehydrogenase increased", "conditions": "dose not given, grade 3, all arms pooled", "adverse event incidence [%]": 0}
{"test": "refers to: carotid intima-media thickening", "conditions": "60 mg once daily, grade 5", "adverse event incidence [%]": 0}
{"data": "Block 3", "SMILES": "COc1ccc(Cl)cc1NC(=O)Nc1cc(C)nc2ccccc12", "read-out": "enzyme activity", "action": "inhibitor", "tested at": "0.5 µM", "baseline": "control"}
{"target": "Tyrosine-protein kinase BTK (BTK, Homo sapiens, UniProt Q06187)", "remaining activity [%]": 102}
{"target": "cGMP-dependent protein kinase 1 (PRKG1, Homo sapiens, UniProt Q13976)", "remaining activity [%]": 97.5}
{"target": "Protein kinase C iota type (PRKCI, Homo sapiens, UniProt P41743)", "remaining activity [%]": 99.4}
{"target": "Serine/threonine-protein kinase WNK2 (WNK2, Homo sapiens, UniProt Q9Y3S1)", "remaining activity [%]": 104}
{"target": "Mitogen-activated protein kinase 12 (MAPK12, Homo sapiens, UniProt P53778)", "remaining activity [%]": 101}
{"target": "Leucine-rich repeat serine/threonine-protein kinase 2 (LRRK2, Homo sapiens, UniProt Q5S007)", "remaining activity [%]": 98}
{"target": "Serine/threonine-protein kinase PLK2 (PLK2, Homo sapiens, UniProt Q9NYY3)", "remaining activity [%]": 102}
{"target": "Serine/threonine-protein kinase Chk1 (CHEK1, Homo sapiens, UniProt O14757)", "remaining activity [%]": 96.6}
{"target": "Casein kinase II subunit alpha (CSNK2A1, Homo sapiens, UniProt P68400)", "remaining activity [%]": 97.9}
{"data": "Block 4", "cell line": "A-375", "tested at": "100 µM", "time": "18 h"}
{"Compound": "CCCc1cc(C(N)=S)ccn1", "viability [%]": 111}
{"Compound": "C[C@H](CCC(=O)NCCS(=O)(=O)O)[C@H]1CC[C@H]2[C@@H]3[C@@H](O)C[C@@H]4C[C@H](O)CC[C@]4(C)[C@H]3CC[C@]12C", "viability [%]": 95.9}
{"Compound": "N#C[C@@H]1C[C@@H]2C[C@@H]2N1C(=O)[C@@H](N)C12CC3CC(CC(O)(C3)C1)C2", "viability [%]": 96}
{"Compound": "NC[C@@H]1O[C@H](O[C@H]2[C@@H](O)[C@H](O[C@@H]3[C@@H](O)[C@H](N)C[C@H](N)[C@H]3O[C@H]3O[C@H](CO)[C@@H](O)[C@H](O)[C@H]3N)O[C@@H]2CO)[C@H](N)[C@@H](O)[C@@H]1O", "viability [%]": 94}
{"Compound": "CCOC(=O)c1c(CSc2ccccc2)n(C)c2cc(Br)c(O)c(CN(C)C)c12", "viability [%]": 13.2}
{"Compound": "OC[C@H]1O[C@@H](Oc2ccc(O)cc2)[C@H](O)[C@@H](O)[C@@H]1O", "viability [%]": 100}
{"Compound": "C[C@@H]1O[C@@]2(CS1)CN1CCC2CC1", "viability [%]": 98.3}
{"note": "A few entries again (block 3):"}
{"target": "Tyrosine-protein kinase BTK (BTK, Homo sapiens, UniProt Q06187)", "remaining activity [%]": 102}
{"target": "Casein kinase II subunit alpha (CSNK2A1, Homo sapiens, UniProt P68400)", "remaining activity [%]": 97.9}
{"target": "Serine/threonine-protein kinase Chk1 (CHEK1, Homo sapiens, UniProt O14757)", "remaining activity [%]": 96.6}
{"target": "Mitogen-activated protein kinase 12 (MAPK12, Homo sapiens, UniProt P53778)", "remaining activity [%]": 101}
{"target": "cGMP-dependent protein kinase 1 (PRKG1, Homo sapiens, UniProt Q13976)", "remaining activity [%]": 97.5}
{"target": "Protein kinase C iota type (PRKCI, Homo sapiens, UniProt P41743)", "remaining activity [%]": 99.4}
